Experimental data collected from several papers.
Protocols differ between the studies behind these lines.

SMILES	target	test	system	conditions	inhibition
CSc1cccc(CC(=O)N[C@H]2CCOC2=O)c1	ExpR2 (Pectobacterium carotovorum)	cellulase activity, antagonist	Pectobacterium carotovorum, single-ExpR2 strain	5 µM, 4 h, added: OHHL 5 µM	71%
COc1ccc(N2C(=O)N(c3c(C)cccc3Cl)Cc3cnc(Nc4ccc(C5CCN(C)CC5)cc4OC)nc32)nc1	LYN B, human	kinase activity		0.5 µM	97%
O=C(Nc1cccnn1)N1CCN([C@@H]2CCOc3cc(C(F)(F)F)ccc32)CC1	GABA-A receptor chloride channel	binding		20 µM	52%
c1ccc(C(NCCNC(c2ccccc2)c2ccccc2)c2ccccc2)cc1	nicotinic acetylcholine receptor, human	binding		10 µM, Eurofins selectivity panel	-20%
O=C(Cc1ccc(Cl)cc1)N[C@H]1CCOC1=O	ExpR2 (Pectobacterium carotovorum)	cellulase activity, antagonist	Pectobacterium carotovorum, single-ExpR2 strain	5 µM, 4 h, added: OHHL 5 µM	48%
CC(=O)N1CCN(c2ccc(OCC3COC(Cn4ccnc4)(c4ccc(Cl)cc4Cl)O3)cc2)CC1 (stereo not drawn)	human UGT	glucuronidation	human liver microsomes	200 µM, 60 min, added: FBI-COOH 50 µM	> 50%
CC(C)CC(=O)OC[C@H]1O[C@@](C#N)(c2ccc3c(N)ncnn23)[C@H](O)[C@@H]1O	KATP potassium channel human	radioligand binding		20 µM	3%
CCCCCCCCCC(=O)N[C@H]1CCOC1=O	ExpR2 (Pectobacterium carotovorum)	cellulase activity, antagonist	Pectobacterium carotovorum, single-ExpR2 strain	5 µM, 4 h, added: OHHL 5 µM	76%
C[C@H](CCC(=O)O)[C@H]1CC[C@H]2[C@@H]3CC[C@@H]4C[C@H](O)CC[C@]4(C)[C@H]3CC[C@]12C	human UGT	glucuronidation	human liver microsomes	200 µM, 60 min, added: FBI-COOH 50 µM	> 50%

Repeated from above:
SMILES	target	test	system	conditions	inhibition
O=C(Nc1cccnn1)N1CCN([C@@H]2CCOc3cc(C(F)(F)F)ccc32)CC1	GABA-A receptor chloride channel	binding		20 µM	52%
